Results of several laboratories.
Numbered parts are unrelated; each lists some results of a single study. Positions count from the first letter of the parent shown.

Study 1
Target: RING finger protein unkempt homolog, zinc fingers 1-6, GST-SBP tag (UNK, Homo sapiens, UniProt Q9C0B0, residues 30-357)
Method: RNA Bind-n-Seq
Molecule type: RNA
Medium: in vitro
Tested at: not given
Setting: RNA with constant flanks, ends assumed
Baseline: input RNA pool
Reading: higher = stronger binding
Quantity: bound/input enrichment
Shared flanks, not repeated: GGGAGUUCUACAGUCCGACGAUC … CAACAGAGGAUUGAGCAUCA
Residues (chain): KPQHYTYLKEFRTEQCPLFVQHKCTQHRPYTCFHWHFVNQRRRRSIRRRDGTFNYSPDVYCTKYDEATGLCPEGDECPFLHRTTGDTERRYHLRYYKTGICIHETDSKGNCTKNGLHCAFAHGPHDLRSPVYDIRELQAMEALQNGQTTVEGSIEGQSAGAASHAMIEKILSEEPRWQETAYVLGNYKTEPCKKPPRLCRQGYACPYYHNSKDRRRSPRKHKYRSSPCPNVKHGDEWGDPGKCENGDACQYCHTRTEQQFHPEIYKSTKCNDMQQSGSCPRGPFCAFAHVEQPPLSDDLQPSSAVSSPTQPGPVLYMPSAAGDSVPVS
Sequence = UGCAAUUGGGUAGUGGACACUUGUUUACACAAGGGAAGUCGAGAUAACAUGAGUAUUGUACCCGUUUGCUUUUCAAAUGCUCCCAAGGUCUCAGAUGAAGCGGUGAAAAAAGAUUCAGAG; result = 0.103 ratio
Sequence = UAGUUUGUUGUUUAAAAUAAUGUAAUCAUCAAAAUGAUGCAUAUUGUUACACUACUAUUAACCCGGCUUCAGUAUAUCAGUGUUUAUUUCAUUGUGUUAAAUGUAUACUUGUAAAUAAAA; result = 0.204 ratio
Sequence = UGCACUCUUUCAGCCUCAGCAGCACCCAGCACGUGACCAACAUGAUACUUUCUUCCUGCGAGGUUGGCCGCCCGGGAGCCUGGCCAAUGUGGUAGCAGAAGUCUCAAGUCUGGAUAAAGC; result = 0.156 ratio
Sequence = GCCAUCCAGCACUGCCAUUCCCGUGGAGUUGUCCAUCGUGACAUCAAGGAUGAGAACAUCCUGACCGACCUACGCCGUGGCUGUGCCAAACUCAUUGAUUUUGGUUCUGGUGCCCUGCUU; result = 0.0999 ratio
Sequence = AUGCACCUGAAGAAACCUGGGGGCUUUGACAUAUCCUUGUUCUACAGAGAUAUCAUCAGCACCGCAGAGGAUGAGGACCUCAGGGUUCACUUUGAGGAAUCCAGCAAGCUAGAAGACCUG; result = 0.122 ratio
Sequence = AGGGAUGGCCCCCAAUCCCACCUCUGUUUAUUCUGUAAACUGCAACCUAUAAAUAACCUUCCGCAUUCCUAUUGUAACAAAAUUAAUUUUUAUGAAAUAAAUUAUAUUUCCUAGUCUAAU; result = 32.4 ratio
Sequence = GUUAGUUUCUUUAUAACCCGUUUAAGUUUGGUUUGCCUCAAUAUACUUUUUAGUUAUUUAAUCCGUAAUUUAAGUAAAUGUGUUUGGUAAUCAUUGUGAAGUUCAGAUUUAUUAUGGAGA; result = 6.43 ratio
Sequence = UGUGGAGCCAGGAAGUGUAACAUAGUCUGCACCCAGCCCCGAAGAAUCUCGGCGGUGAGCUCCGCCACCAGGGUGUGCGAGGAGCUGGGCUGUGAGAGUGGCCCUGGAGGAAGGAAUUCU; result = 0.106 ratio

Study 2
Target: RNA binding protein fox-1 homolog 2, RRM domain, GST-SBP tag (RBFOX2, Homo sapiens, UniProt O43251-10, residues 100-194)
Method: RNA Bind-n-Seq
Molecule type: RNA
Medium: in vitro
Tested at: 365 nM
Setting: natural RNA segment, single round, ends assumed
Baseline: no-protein control
Reading: higher = stronger binding
Quantity: RBNS enrichment (R)
Shared flanks, not repeated: GGGAGUUCUACAGUCCGACGAUC … UGGAAUUCUCGGGUGCCAA
Sequence = GGUUGGGGGACAGCCUUCAGCAGCAGCUCACACCCUACCUUCCCCAGACUUGCACUGGGGUGGGAUUUGGAGUGAUGGGAAGGUUUUUAAGGGCCGGGGAUGGAUCUUUU; result = 0.407
Sequence = GUUACAUGUUUUAGGAUAAACUAAUUUCUUUUGAGUUCAUAAAUCAUUUGUACCCAGAAUGUAUUAAUAUAUUGCUAUUAGGUUAAUCUGUUAACUGAAUGCUUUGAUCA; result = 0.45
Sequence = GUCCACCCUCCUCUGGAUAUUGGGGAGGGACGGAAGUGACAGGGUGUGGUGGUGGAGUGGGGAGCUGGCUUCUGCUGGCCAGGAUAGCUUAACCCUGACUUUGGGAUCUG; result = 0.398
Sequence = GAAGACAAGAGCUCACCCACUGUGCCUCCCAGCCCAUUCCCUGCCCCCUCAAAGCCUUCAGCCACCUCCGCCACUCAGGAACUGGAUAGACUGAUGGCCUCGCUCUCUGA; result = 0.624
Sequence = CAAAUAGCAUAUAUCUGAAAUCGUAUGUCUGUGCAGGUUUAACUGCUGCAUACAGCGGGCACAGAUGCAUCUUGUUACAUGUAAGAAAAAGCUGUAUUUGAACAGAGCAU; result = 0.897
Sequence = CACAGCUGCACGCACGCAUGCAAGUUCACAGCGCAGGCACCCCCAGCUCGCCUGGAUCUGACUCCAAGUGGCUUGGGUGCCUGGUGGGCAGCACCUUGGAGACCAAGCAG; result = 7.85
Sequence = UGCCCUCACGGGGGAGUGUUCCUGUGUGGCUCCUGCUCCUGCUGUGUGUCGGGCUUAUUAUUGUGACCAUCCUGCUGCUCCAGAGUGCCUUUCCAGGUUUCCUUUAGCUU; result = 0.366
Sequence = AGUGCCUUCAGUUUAGCAUUGCUAUAAAAUGAACCCUGAAUUAGCGAAACAGUGUAACAUUAUUCUGUGUUCUUUAUUAGCUAACUACAAGUGUAUGCUUUCCACUCUGG; result = 0.61

Single results of other studies
P1: viral docking peptide; YKVKRRLVFGADD; partner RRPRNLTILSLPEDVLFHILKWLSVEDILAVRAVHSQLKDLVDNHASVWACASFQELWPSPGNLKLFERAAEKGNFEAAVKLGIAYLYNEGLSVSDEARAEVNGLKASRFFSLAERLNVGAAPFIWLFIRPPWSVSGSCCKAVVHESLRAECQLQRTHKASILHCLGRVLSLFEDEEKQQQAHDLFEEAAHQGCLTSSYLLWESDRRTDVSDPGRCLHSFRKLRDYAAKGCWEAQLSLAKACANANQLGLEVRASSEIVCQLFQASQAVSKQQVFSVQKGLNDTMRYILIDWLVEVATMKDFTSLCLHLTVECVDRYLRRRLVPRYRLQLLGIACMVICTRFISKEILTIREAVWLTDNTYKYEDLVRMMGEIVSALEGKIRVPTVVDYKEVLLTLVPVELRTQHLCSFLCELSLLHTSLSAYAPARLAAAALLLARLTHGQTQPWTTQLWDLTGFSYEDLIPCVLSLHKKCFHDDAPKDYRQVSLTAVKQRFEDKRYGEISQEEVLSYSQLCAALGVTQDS
Substance = HNRNPK (Homo sapiens, UniProt P61978); target or system = HNRNPD (Homo sapiens, UniProt Q14103); test = cross-linking MS; setting = hits only; quantity = interaction screen; result = cross-linked
Substance = P1 V8E; target or system = CCNF, cyclin fold, Cln2 fusion (human); test = yeast growth competition, sequencing; test system = yeast; setting = strong parent motif; how to read = baseline: not given, higher = stronger binding; quantity = normalised enrichment score; result = 8.54
Substance = P4HB (Homo sapiens, UniProt P07237); target or system = PSPC1 (Homo sapiens, UniProt Q8WXF1); test = cross-linking MS; test system = cell fractions; setting = together with: DSSO; quantity = cross-linked residues; result = K71 to K519
Substance = PGRMC1 (Homo sapiens, UniProt O00264); target or system = RPN1 (Homo sapiens, UniProt P04843); test = cross-linking MS; test system = cell fractions; setting = together with: DSSO; quantity = cross-linked residues; result = K102 to K564
Substance = FAM98B (Homo sapiens, UniProt Q52LJ0); target or system = RTRAF (Homo sapiens, UniProt Q9Y224); test = cross-linking MS; test system = cell fractions; setting = together with: DMTMM; quantity = cross-linked residues; result = E145 to K154

A few entries again (single results of other studies):
Substance = P4HB (Homo sapiens, UniProt P07237); target or system = PSPC1 (Homo sapiens, UniProt Q8WXF1); test = cross-linking MS; test system = cell fractions; setting = together with: DSSO; quantity = cross-linked residues; result = K71 to K519
Substance = PGRMC1 (Homo sapiens, UniProt O00264); target or system = RPN1 (Homo sapiens, UniProt P04843); test = cross-linking MS; test system = cell fractions; setting = together with: DSSO; quantity = cross-linked residues; result = K102 to K564
Substance = FAM98B (Homo sapiens, UniProt Q52LJ0); target or system = RTRAF (Homo sapiens, UniProt Q9Y224); test = cross-linking MS; test system = cell fractions; setting = together with: DMTMM; quantity = cross-linked residues; result = E145 to K154
